Results collected from several papers.
Each line is one published result; not all experiments were run side by side.

| Compound | cell line | test | setting | CC50 |
| --- | --- | --- | --- | --- |
| CC(C)C1=C[C@@]23CC[C@@H]4[C@](C)(CCC[C@@]4(C)C(=O)OCC#CCN4CCOCC4)[C@H]2C[C@@H]1[C@H]1C(=O)CCC(=O)[C@H]13 | MDCK | cytotoxicity, MTT | 48 h | 20.8 µM |
| C#CCCC1(CCCNC(=O)CCOCCOc2ccc(-c3cnc4c(C#Cc5cccnc5)snc4c3)cc2)N=N1 | human cells |  | 24 (unit not given) | > 20 µM |
| O=S(=O)(c1cc(Cl)cc(Cl)c1)N1CCCC2=CC3CC(CN4CCCCC34)C21 (stereo not shown) | Huh-7 | cytotoxicity |  | > 267 µM |
| CCCCCCC1O[C@@H]2C[C@H]3[C@@H]4CCC5=CC(=O)C=C[C@]5(C)[C@H]4[C@@H](O)C[C@]3(C)[C@]2(C(=O)CO)O1 (stereo partly shown) | human cells |  |  | > 30 µM |
| CCCOP(=O)(O)Oc1c2c(c(OP(=O)(O)OCCC)c3c1C1CC3c3cc4c(cc31)C1CC4c3ccccc31)C1CC2c2cc3c(cc21)C1CC3c2ccccc21 | Caco-2 | CellTiter-Glo | 2 days | 226 µM |
| CC[C@H](C)/C=C/C(=O)N1C[C@@H](C)C[C@H]1C(=O)N[C@@H](CC(C)C)C(=O)N[C@H](C(=O)NC(C)(C)C(=O)N[C@@H](CC(C)C)C(=O)N[C@@H](CC(C)C)C(=O)NC(C)(C)C(=O)NC(C)(C)C(=O)NCCC(=O)N[C@@H](C)CNC)[C@H](O)C(C)C | C2C12 | cell growth or viability, imaging | 72 h | > 1.5 µM |
| Clc1ccc(CN2CCCC3=CC4CC(CN5CCCCC45)C32)c(Cl)c1 (stereo not shown) | Huh-7 | cytotoxicity |  | 138 µM |
| CC(C)C[C@H](NC(=O)[C@H](Cc1c[nH]cn1)NC(=O)[C@H](Cc1c[nH]cn1)NC(=O)[C@H](CC(C)C)NC(=O)[C@H](Cc1ccccc1)NC(=O)CNC(=O)[C@H](CC(C)C)NC(=O)[C@@H](N)Cc1ccccc1)C(=O)N[C@@H](Cc1ccccc1)C(N)=O | Huh-7.5.1 | cell growth or viability, MTT | 48 h | > 500 µg/mL |
| O=C(c1ccc(Cl)c(Cl)c1)N1CCCC2=CC3CC(CN4CCCCC34)C21 (stereo not shown) | Huh-7 | cytotoxicity |  | > 267 µM |
| CCN(CC)CCCC(C)Nc1c2cc(OC)ccc2nc2ccc(C(F)(F)F)cc12 (stereo not shown) | U2OS-ACE2-GFP |  | 20 (unit not given) | 7.26 µM |

Repeated from above:
| Compound | cell line | test | setting | CC50 |
| --- | --- | --- | --- | --- |
| C#CCCC1(CCCNC(=O)CCOCCOc2ccc(-c3cnc4c(C#Cc5cccnc5)snc4c3)cc2)N=N1 | human cells |  | 24 (unit not given) | > 20 µM |
